Measurements pooled from the literature.
Numbered parts are unrelated; each lists some results of a single study.

Sample 1
Target: RING finger protein unkempt homolog, zinc fingers 1-6, SBP tag (UNK, Homo sapiens, UniProt Q9C0B0, residues 30-357)
Sequence of UniProt Q9C0B0 (30-357, looked up): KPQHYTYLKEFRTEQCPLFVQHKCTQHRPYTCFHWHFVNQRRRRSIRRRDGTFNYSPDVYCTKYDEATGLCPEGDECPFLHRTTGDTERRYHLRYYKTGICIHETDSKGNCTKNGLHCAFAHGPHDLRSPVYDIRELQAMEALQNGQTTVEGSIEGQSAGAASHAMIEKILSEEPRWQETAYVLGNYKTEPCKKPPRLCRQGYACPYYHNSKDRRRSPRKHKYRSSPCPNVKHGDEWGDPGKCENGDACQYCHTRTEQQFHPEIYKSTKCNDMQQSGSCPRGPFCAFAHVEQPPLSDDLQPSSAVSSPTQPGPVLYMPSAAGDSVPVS
Method: RNA Bind-n-Seq
Molecule type: RNA
Sample: in vitro
Tested at: 100 nM
Notes: RNA with constant flanks, vertebrate orthologous sites, ends assumed
Baseline: input RNA pool
Reading: higher = stronger binding
Shared flanks, not repeated: GGGAGUUCUACAGUCCGACGAUC … CAACAGAGGAUUGAGCAUCA
Oligonucleotide	bound/input enrichment [ratio]
ACCCUCAACUAGCUUUGAACAAUGGUACUAUUGAGCUGGUUCAUAAGUUGGUUUUGGGAAUUUAGGUCUUUGAUUUCUCUACUGCUAAUGGUCAGAGAGACAGAAAUUAUAGCCAGGAAC	0.339
UAUUUAUACUGCCAAACGUUUCUGCCCGUCUUUCUUUGUCCUUCUUUUUUUCCUGGUAGUUCUCGUUGUUACCCGCACCGUUUUUAUGUCUCCUUCACGGAAGGGCUAGAGUUUUAACUU	0.708
CAUUAACACACACAAUGUCUCCAGGGGGGUAUUAGAUUUCAUUUCUUACAUAUAAAACAAACAAAACCAACCAACGAACCAUUUUUAAAGUAGAAGAGGGUUUAAAAUAGAAAAUGACAU	2.33
UAUCUUUAGGAUGAAGCUCUUGCACCAGGUGUCACGGGUCUGGAAAACAGAUGGCUUGACGAGUUGUUCUUAUAAAUUAUUGUCUGUGGAACACAAUCCUUUAUAUAUCAACAUCACAGU	0.686
GUCAUCUGAUUGGAUAAAGACCAUCCCGAGUUAUAACCAAACAAAUAGCUCCAUGGACUUCAGAAAUUAUAUGAUGAGAGAUGAGAAUCUGGAACCACUGCCCAAAAACUGGGAGAUGGC	0.376
CUGUAAACCUCUGUUUAUGUGCAAGUGUGUGUGCGGGCGUGUGGGUGUGUGUGUGGGUGUGUGUUUGGUUCUUGCACAAAAUAAUGUACUUUAUGUGUUUGCGUACAAUGGGACCGAUUU	0.449
CCCAAAGGCCAAAUCCCCUCCUCCCUUCUACUGCUUCUACCAACUGGAAGCACAGAAAACUAGAAUUUCAUUUAUUUUGUUUUUAAAAAUAUACGUUGAUUUCUUGUAACAUCCAAUAGG	0.485
GUGGGGAUCGGGGUAGGGUGGGAAGAAGAUGUAUGGAUGUUACCGGCAUUUUUAAGUGUUCAGAGUUUUUUGUGUUUCUCUCUCUCUCUCUCUUUCUCGUUUUGUUGUUUCCCUUUAAUU	0.676

Sample 2
Target: Interferon regulatory factor 5, full length, phosphomimetic (IRF5, Homo sapiens, UniProt Q13568-2, residues 1-514, S451D/S453D/S456D/S462D)
Method: protein-binding microarray
Molecule type: double-stranded DNA, one strand shown
Sample: in vitro
Tested at: 940 nM top
Notes: 60-bp whole probe
Together with: salmon DNA 0.4 mg/ml
Baseline: random background probes
Reading: higher = stronger binding
Shared flanks, not repeated: GCCTAGCAC … GTCTTGATTCGCTTGACGCTGCTG
Oligonucleotide	fitted relative affinity [z-score]
TTAGATTTCGGGGATCGATTAGTGCTA	1.18
GTGAGTCCCGAGAATGGTGTGGTGCTA	-0.328
AAGTGTTTGGTGTCTTTTGTGGTGCTA	0.635
TCATCCTTCTGACATCAAACTGTGCTA	0.705
TTAGGTTTCGGTCTCGGGTAGTGCTAG	13.8
AAGACTCTCTTGTCTGGATGTGTGCTA	0.0993
TTAGGTATCGGTCACGGTTAGTGCTAG	9.78
GGCTTTGACTCTTTCTGTCAGTGCTAG	0.24
TCACTCTTCCTTTACTTACTGTGCTAG	1.92
TAGGGACTCAGGTCTCCCTTGGTGCTA	-0.384
GACGCTATCGGGTATCGAGACGTGCTA	1.01
TTAGGTTACGGTTCCGGTTAGTGCTAG	1.58
TTAGGTATCGGGCATCGGTTAGTGCTA	4.37
GACGATCCCAGTCTCGAGACGTGCTAG	1.22
TTTTTTTTTTTTTTTTGTATGTGCTAG	1.69
TCAGAATTCAGAATGGGACTGTGCTAG	-0.302
ATAGATATCAGTCTCGATTAGTGCTAG	2.8
TTAGAACTGGGTACTGGATTAGTGCTA	-0.337
TCACATTGCCTGTTTTTCACTGTGCTA	1.21

Sample 3
Target: Histone acetyltransferase KAT6A, both winged helices, GST fusion (KAT6A, Homo sapiens, UniProt Q92794, residues 1-181)
Method: protein binding microarray
Molecule type: double-stranded DNA, one strand shown
Sample: in vitro
Tested at: not given
Notes: 8-mer, flanks averaged, mean of 2 arrays, mostly near background
Baseline: not given
Reading: higher = stronger binding
Residues (chain): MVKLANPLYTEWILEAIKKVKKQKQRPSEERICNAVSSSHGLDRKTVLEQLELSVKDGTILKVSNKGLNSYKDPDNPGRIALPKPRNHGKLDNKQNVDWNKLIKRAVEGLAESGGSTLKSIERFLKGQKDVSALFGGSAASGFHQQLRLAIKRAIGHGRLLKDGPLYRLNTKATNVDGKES
Oligonucleotide	E-score
TGACGTCA	0.175
GACATCTA	-0.00261
CCAAGAAG	-0.0785
AGGGCTCA	-0.145
AGTACACG	0.117
CAAGATAG	-0.115
GACGCCGA	0.176
CTTATAAC	-0.0419
AGTTCCGC	0.237
ATCAGGAC	-0.0285
CACTCCAG	-0.134
CAGGATTC	-0.158
ACTTCCCT	-0.242
GTAAAAAA	0.0136
CTCCGAAC	0.206
AGAACGAC	-0.0119
AACACCCG	0.206

Sample 4
Target: RNA binding protein fox-1 homolog 2, RRM domain, GST-SBP tag (RBFOX2, Homo sapiens, UniProt O43251-10, residues 100-194)
Method: RNA Bind-n-Seq
Molecule type: RNA
Sample: in vitro
Tested at: 365 nM
Notes: natural RNA segment, single round, ends assumed
Baseline: no-protein control
Reading: higher = stronger binding
Shared flanks, not repeated: GGGAGUUCUACAGUCCGACGAUC … UGGAAUUCUCGGGUGCCAA
Oligonucleotide	RBNS enrichment (R)
CUGGGAACUUAUUAAAUGGAAACUGAAACUACUGCACCAUUUAAAAACAGGCAGCUCAUAAGAGCCACAGGUCUUUAUGUUGAGUCGCGCACCGAAAAACUAAAAAUAAU	0.386
UGGAGAACUUUCCAUCUGCUUGUAUUUUCCAUACACAUCCCCAGCCAGAAGUUAGUGUCCGAAGACCGAAUUUUAUUUUACAGAGCUUGAAAACUCACUUCAAUGAACAA	0.799
UUCCACUCCCGCCCCUUCUCUUGCAGCCAAGUCAGACUCCAAGAGGCCCCACUGAGCUGCCCUCUCCAAAAACCAGAUUUUUUUUUGUAGUUUUAAUGCCAUUAGUUGUC	0.599
AGAAGCAAACAAAAUACUUUUACCCACUUAAAAAGAGAAUAUAACAUUUUAUGUCACUAUAAUCUUUUGUUUUUUAAGUUAGUGUAUAUUUUGUUGUGAUUAUCUUUUUG	0.552
UGAUGUUUACCAUAAGCAGGUACAAGCUUCAUGAACCGUUCUUAAUGAACUAUAAUUGAAUAGAUACCAAAAAUAGAAUGACAAAUGUAUUUUAAUAGCAGAUGAGGCAG	1.02
UGCAGUUUCCUGCUUUCUGCCCUGAACUUUGAAAUGCCUGUGUAAGGAAUCAAAAUGAACAUGAUCGUACUUUUUAAAAGUGAAAUAAUUAAGGAAGAAAGAAAGAGGAA	0.838
CUAUUCCAGCACUGGUUUUGAAUGCUGUAUGCAACCAGUCUGAAUACCACAUACGCUGCACUGUUCUUAGAGGGUUUCCAUACUUACCACCGAUCUACAAGGGUUGAUCC	16.6
AAUCCAGAUGUUUCGUUUCCAGGUGCAGCAGCGCUGCCUUGUGCUUUCCUGUGACUUUAAGAGCAUCUGAUGUUCUGUUCUCUUCUCCCACUACGCAACCCACUGCCCUG	2.48

A few entries again (sample 2):
Oligonucleotide	fitted relative affinity [z-score]
GGCTTTGACTCTTTCTGTCAGTGCTAG	0.24
TCACTCTTCCTTTACTTACTGTGCTAG	1.92
TAGGGACTCAGGTCTCCCTTGGTGCTA	-0.384
GACGCTATCGGGTATCGAGACGTGCTA	1.01
